# Assay results from different studies.
# A part holds a random share of what one study measured. Changes are numbered by the printed parent chain.
# UniProt Q8NG66, sequence (whole entry, looked up): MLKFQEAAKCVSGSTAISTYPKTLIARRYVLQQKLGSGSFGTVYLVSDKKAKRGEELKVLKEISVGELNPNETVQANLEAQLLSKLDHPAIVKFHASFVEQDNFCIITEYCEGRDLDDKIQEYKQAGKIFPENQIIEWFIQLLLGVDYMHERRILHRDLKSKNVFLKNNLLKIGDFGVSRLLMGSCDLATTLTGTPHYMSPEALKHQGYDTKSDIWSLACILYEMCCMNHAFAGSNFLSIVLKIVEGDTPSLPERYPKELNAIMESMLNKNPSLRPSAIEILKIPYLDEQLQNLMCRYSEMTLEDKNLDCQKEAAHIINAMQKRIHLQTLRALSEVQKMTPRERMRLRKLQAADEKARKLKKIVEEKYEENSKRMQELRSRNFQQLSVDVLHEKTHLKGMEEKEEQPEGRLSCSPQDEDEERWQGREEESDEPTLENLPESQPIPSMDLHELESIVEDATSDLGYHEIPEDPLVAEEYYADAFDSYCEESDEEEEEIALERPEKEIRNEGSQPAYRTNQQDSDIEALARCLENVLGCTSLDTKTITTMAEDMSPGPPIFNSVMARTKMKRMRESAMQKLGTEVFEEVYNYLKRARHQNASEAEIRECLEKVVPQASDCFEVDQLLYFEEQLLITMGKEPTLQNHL

# Block 1 — Substitution: V121G; technique: DHFR PCA, deep sequencing; sample: yeast; reference: wild-type fitted maximum; direction: higher = stronger binding
# Target: ABI1, truncated, D143A, DHFR fusion (Arabidopsis thaliana)
# Notes: methotrexate growth selection, single substitutions
# Starting sequence: PYL1, truncated, DHFR fusion (Arabidopsis thaliana); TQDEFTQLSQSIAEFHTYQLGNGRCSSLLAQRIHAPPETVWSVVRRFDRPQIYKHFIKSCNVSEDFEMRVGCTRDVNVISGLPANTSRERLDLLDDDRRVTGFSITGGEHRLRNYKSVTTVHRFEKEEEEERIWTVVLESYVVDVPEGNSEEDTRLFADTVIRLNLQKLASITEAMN
conditions,relative binding score
together with: (+)-ABA 1.4 µM,1.27%
together with: (+)-ABA 0.032 µM,2.27%
together with: (+)-ABA 710 µM,9.71%
together with: (+)-ABA 0.0091 µM,-1.27%
together with: (+)-ABA 17 µM,4.99%
together with: (+)-ABA 4.8 µM,-2.2%

# Block 2 — technique: RNA Bind-n-Seq; form: RNA; sample: in vitro; tested at: not given; notes: RNA with constant flanks, ends assumed; reference: input RNA pool; direction: higher = stronger binding
# Target: RING finger protein unkempt homolog, zinc fingers 1-6, GST-SBP tag (UNK, Homo sapiens, UniProt Q9C0B0, residues 30-357)
# UniProt Q9C0B0, sequence (30-357, looked up): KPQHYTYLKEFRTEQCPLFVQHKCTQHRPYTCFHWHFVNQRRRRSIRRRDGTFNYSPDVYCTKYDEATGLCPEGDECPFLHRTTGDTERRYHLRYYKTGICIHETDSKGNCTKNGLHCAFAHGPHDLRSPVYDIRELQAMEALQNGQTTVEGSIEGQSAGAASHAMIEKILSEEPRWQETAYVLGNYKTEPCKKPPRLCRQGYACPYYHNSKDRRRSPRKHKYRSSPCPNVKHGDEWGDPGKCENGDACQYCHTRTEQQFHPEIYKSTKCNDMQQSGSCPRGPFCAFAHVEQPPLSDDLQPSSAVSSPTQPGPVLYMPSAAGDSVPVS
# Shared flanks, not repeated: GGGAGUUCUACAGUCCGACGAUC … CAACAGAGGAUUGAGCAUCA
Strand,bound/input enrichment [ratio]
UGCUGCUGAAGGGUGUGUCUUGGGGCACACAUCCACUUUGAUUUUGCUUUACUCUUCCAGAACCGUUGCUGCGUAAUAGAAAUUACAUUUUUCUACUUGAUGGGUCAUCUUAAAUCUGGU,0.667
CGCUGCUGGACAUAUGAGACAUCGCUGCUGGUAGAAGAGGCCAUUAGUGAGGAGCUUCCCUACCGUGAAUACUUCGAGUACUUUGCCCCAGACUUCACACUUCAUCCAGAUGUCAGCACC,0.176
CCGAAGCCUUUCUCUCAAAUCUAGUAGUUAACAAGACCAUCUUUGCUAAAGUAGACAGAUCCGCAGGAAUUAUCAACUUCCAGAGACCCAAGGAUCCAAAUAAUUUAUUAAAUGACUGGU,2.07
UUUCCGUCUUUUGGAAGUGGAUUUUCUUCUUUUGAUACAGGAUUUACUUCAUUUGGGUCACCCGGUCACGGGGGCCUCACUUCAUUCUCUUCCACGUCAUUUGGUGGUAGUGGCAUGGGC,0.199
UUUAUGACAUGUCCCUUUAUAUUGAAUGCUGUCACAAAGAAUUUGGGAUUAUAUUAUGACAACCGAAUUCGCAUGUACAGUGAACGAAGAAUCACUGUUCUCUACAGCUUAGUUCAAGGA,0.155
UUCAGGAUGCUGGUGUCACGUUUUGCCAGUCGGUUUCGGAAAGACUCGAGCACUGAGAUGGUCCGAACCAACUUGGCUCAUAGAAAGUCUCUGUCUCAGAAGGAGAACAGACACAGGGUG,0.143
CAGUGGUAAAGUGAAGCAAAUUGUUCUACCAAGACCUCAUUCUUCAUGUCAUUAAGCAACCGGUUGCAGCAAACAAGGAAGAGCUUCUUGCUUUUUAUUCUUCCAACCUUAAUUGAACAC,0.179
CCCGCCCGCCCGCCUCCCUGCCGGCCCAUCCACACCCUGCGUCCACACCACUUCCAACCUCACCGGAGCCGAUGUAUUUAUUUUCCUUGAGUUUUUAUUUAUGCUGUAACCUGUAUCAAG,0.535

# Block 3 — technique: universal PBM; form: double-stranded DNA, one strand shown; sample: in vitro; tested at: 600 nM; direction: higher = stronger binding
# Target: Sal-like protein 4, full length isoform A (SALL4, Homo sapiens, UniProt Q9UJQ4, residues 1-1053)
# UniProt Q9UJQ4, sequence (whole entry, looked up): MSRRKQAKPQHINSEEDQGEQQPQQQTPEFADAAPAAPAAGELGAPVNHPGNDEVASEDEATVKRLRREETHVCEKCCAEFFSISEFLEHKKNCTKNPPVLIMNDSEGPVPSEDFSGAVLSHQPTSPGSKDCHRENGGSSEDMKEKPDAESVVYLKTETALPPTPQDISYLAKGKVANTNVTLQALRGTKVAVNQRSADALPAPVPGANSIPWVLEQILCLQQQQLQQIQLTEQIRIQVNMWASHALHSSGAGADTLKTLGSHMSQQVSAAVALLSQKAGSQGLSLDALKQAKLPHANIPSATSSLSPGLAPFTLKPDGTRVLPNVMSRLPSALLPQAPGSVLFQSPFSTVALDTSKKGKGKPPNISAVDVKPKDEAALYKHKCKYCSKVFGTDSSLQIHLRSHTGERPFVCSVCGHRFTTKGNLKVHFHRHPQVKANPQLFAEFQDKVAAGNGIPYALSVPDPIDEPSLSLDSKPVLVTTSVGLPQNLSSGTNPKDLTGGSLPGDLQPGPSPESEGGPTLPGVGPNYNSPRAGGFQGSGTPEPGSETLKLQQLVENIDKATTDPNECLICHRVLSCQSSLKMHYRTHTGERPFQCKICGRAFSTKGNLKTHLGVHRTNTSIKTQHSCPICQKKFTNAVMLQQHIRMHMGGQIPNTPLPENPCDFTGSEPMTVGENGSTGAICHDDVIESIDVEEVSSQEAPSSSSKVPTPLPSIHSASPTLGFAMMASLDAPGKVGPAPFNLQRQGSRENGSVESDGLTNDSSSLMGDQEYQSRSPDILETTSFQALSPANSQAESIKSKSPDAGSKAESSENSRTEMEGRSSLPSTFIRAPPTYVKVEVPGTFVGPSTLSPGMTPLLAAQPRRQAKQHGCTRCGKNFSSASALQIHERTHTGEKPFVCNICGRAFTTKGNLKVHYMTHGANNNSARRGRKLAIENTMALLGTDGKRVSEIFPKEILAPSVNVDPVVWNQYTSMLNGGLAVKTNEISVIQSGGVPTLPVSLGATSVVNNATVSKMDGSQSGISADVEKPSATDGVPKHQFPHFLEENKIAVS
# Notes: 8-mer, flanks averaged, mean of replicates
Strand,E-score
AGCCCAGA,-0.231
AGTGGGTC,-0.265
GAGGGGTA,-0.276
AGCTCGTA,-0.0349
GACGCTAA,-0.144
CAACTGTG,-0.0988
ATCCCAAT,0.208
CCGTATGA,0.166

# Single results of other studies
SMILES,target,test,conditions,how to read,endpoint,result
Nc1cccc(-c2cc3c(Oc4cccc(O)c4)ncnc3[nH]2)c1,"Serine/threonine-protein kinase Nek11 (NEK11, Homo sapiens, UniProt Q8NG66)","enzyme activity, inhibitor",0.5 µM,reference: control,remaining activity,89.6%

# Some of these lines once more (block 2):
Strand,bound/input enrichment [ratio]
CCCGCCCGCCCGCCUCCCUGCCGGCCCAUCCACACCCUGCGUCCACACCACUUCCAACCUCACCGGAGCCGAUGUAUUUAUUUUCCUUGAGUUUUUAUUUAUGCUGUAACCUGUAUCAAG,0.535
CAGUGGUAAAGUGAAGCAAAUUGUUCUACCAAGACCUCAUUCUUCAUGUCAUUAAGCAACCGGUUGCAGCAAACAAGGAAGAGCUUCUUGCUUUUUAUUCUUCCAACCUUAAUUGAACAC,0.179
